Results from different studies.
Lines come from different studies, so protocols differ. “And” joins repeats or separate records; there may be more than shown. ± marks the error that the study gave.

LPYAK — transition enthalpy (DSC; peptide, 7/3 SOPC/cholesterol bilayers; 5 mol%, pH 7.40, SOPC chain melting transition): 1.1 kcal/mol
Cc1ccc(-c2cccc(CN3CCCC(c4nc5ccc(C)cc5c(=O)[nH]4)C3)c2)c(C)c1 (stereo not drawn) — AC50 (SARS-CoV-2; cytopathic effect, cell-based CPE; USA_WA1/2020): 12600 nM
O=C1CC(c2nc3c(s2)CCCC3)c2cc3cn[nH]c3cc2N1 (stereo not drawn) — remaining activity (Lassa mammarenavirus; viral replication; Huh-7; 10 µM, 72 h): 30%
ω-agatoxin IVA — PKA-RII phosphorylation inhibition (cAMP signalling, high-content microscopy; DRG neurons, rat, spinal cord injury; dose not given, normalised 0 to 1, unit not given, together with: forskolin, DAMGO 0.03; reference: DAMGO maximum, higher = stronger inhibition): 1.05 and 0.773 and 0.987
N#CC(C#N)=NNc1cccc(Cl)c1 — fold enhancement (Escherichia coli; tetracycline MIC, checkerboard; tetracycline-resistant (pBR322); 1 µM, together with: tetracycline; reference: MIC alone over combination): 1 fold
SIIAYTMSL — frequency of responding donors (AIM; peptide, CD8+ T cells from PBMC, human donors; HLA-B*08:01 restricted, unit not given; reference: positive over tested donors): 20
Cc1cc(/C=C/C#N)cc(C)c1-n1cnc2cnc(Nc3ccc4cc(C#N)ccc4c3)nc21 — EC50 (HIV-1; viral replication, single-round infection; RT mutant M184V): < 5 nM
CCc1c(C(=O)C(N)=O)c2c(OCC(=O)O)cccc2n1Cc1ccccc1 — survival (PB population, mouse; intravenous, 120 µg/mouse, 24 h, given 0 min after venom, together with: Daboia russelii venom 2.5 x LD50 i.p.): 100%
O=C1Nc2ccc(Cl)cc2[C@@](C#CC2CC2)(C(F)(F)F)O1 — EC50 (HIV-1; viral replication, single-round infection; RT mutant Y181I): 0.9 ± 0.2 nM
CC(Nc1nc(N2CCNCC2C)nc2ccccc12)c1ccccc1 (stereo not drawn) — efficacy (SARS-CoV-2; cytopathic effect, cell-based CPE; USA_WA1/2020; round 2, 5-point dilution): 112%
Nc1cc(N2CCCC(C(=O)c3ccc(Oc4ccccc4)cc3)C2)ncn1 (stereo not drawn) — remaining activity (Lassa mammarenavirus; viral replication; Huh-7; 10 µM, 72 h): 47%
ASAFFGMSRIGMEVT — responding donors (human CD4 T cells; AIM; peptide): 8%
Fc1ccc(C(OCCN2CCN(CCCc3ccccc3)CC2)c2ccc(F)cc2)cc1 — IC50 (HeLa; Ebola VLP entry): 7690 nM
Cc1cccc(-c2ccc(NC(=O)C3CCN(C(=O)CSc4ccncc4)CC3)cc2)c1 — remaining activity (Lassa mammarenavirus; viral replication; Huh-7; 10 µM, 72 h): 29%
TVTLLPAADLDDFSK — responding donors (human CD4 T cells; AIM; peptide): 7%
O=C(NCCN1CCCCC1)c1ccc(-c2ccc(N3CCSCC3)nc2)cc1 — efficacy (SARS-CoV-2; cytopathic effect; USA_WA1/2020; round 2, 5-point): 57.4%
Nc1ncccc1CN1CCCC(C(=O)c2cccc3ccccc23)C1 (stereo not drawn) — remaining activity (Lassa mammarenavirus; viral replication; Huh-7; 10 µM, 72 h): 55%
Cc1cc(/C=C/C#N)cc(C)c1Nc1ccnc(Nc2ccc(C#N)cc2)n1 — EC50 (HIV-1; viral replication, single-round infection; RT mutant E40K): 0.3 ± 0.04 nM
CC(C)(Nc1nc(N2CCNCC2)nc2ccccc12)c1ccccc1 — maximum response (SARS-CoV-2; cytopathic effect; USA_WA1/2020; retest, 8-point, duplicates): 39.7%
Cc1cc(/C=C/C#N)cc(C)c1Nc1nc(Nc2ccc3cc(C#N)ccc3c2)ncc1N — EC50 (HIV-1; viral replication, single-round infection; RT mutant V106A): 13.7 ± 3.4 nM
Cc1nc2n(n1)CC(=O)N[C@@H](C(C)C)CN(C(=O)CCC(F)(F)F)CC(=O)N[C@@H](CC(C)C)c1nc(cs1)C(=O)N[C@H]2Cc1ccccc1 — remaining activity (Lassa mammarenavirus; viral replication; Huh-7; 10 µM, 72 h): 107%
COc1ccccc1-c1cccc(CN2CCCC(C(=O)NCc3ccc(F)cc3)C2)c1 (stereo not drawn) — AC50 (SARS-CoV-2; cytopathic effect, cell-based CPE; USA_WA1/2020; round 1, 5-point dilution): 12600 nM
PNFSKLINIIIWFLL — responding donors (human CD4 T cells; AIM; peptide): 8%
CCCN(CCC)CCCNC(=O)C1CCCN(Cc2nc(-c3ccc(Cl)cc3)oc2C)C1 (stereo not drawn) — maximum response (SARS-CoV-2; cytopathic effect; USA_WA1/2020; retest 8-point): 78.7%
NRNRFLYIIKLIFLW — responding donors (human CD4 T cells; AIM; peptide): 13%
Cn1c(Cn2ccc(C(F)(F)F)c(Oc3cc(Cl)cc(C#N)c3)c2=O)n[nH]c1=O — EC50 (HIV-1; viral replication, single-round infection; RT mutant V106A/F227L/L234I): > 100 nM
CCCC(=O)OCSc1ccccc1C(=O)NCCC(N)=O — EC50 (HIV-1; viral replication; human PBMC, group O BCF01, CCR5-tropic clinical isolate): 7040 ± 1740 nM
CNCCN(C)c1nc(NC(C)c2ccccc2)c2ccccc2n1 (stereo not drawn) — maximum response (SARS-CoV-2; cytopathic effect; USA_WA1/2020; retest 8-point): 67.9%
CNC(=O)[C@@H](NC(=O)[C@H](CC(C)C)[C@H](O)C(=O)NO)C(C)(C)C — remaining fibrinogen Aα chain (human fibrinogen; SDS-PAGE; Daboia russelii; concentration not given, unit not given, together with: TN venom; reference: untreated fibrinogen): 0.32
Cc1oc(-c2ccccc2Cl)cc1C(=O)NCCc1c[nH]cn1 — remaining activity (Lassa mammarenavirus; viral replication; Huh-7; 10 µM, 72 h): 23%
RTRSMWSF — frequency of responding donors (AIM; peptide, CD8+ T cells from PBMC, human donors; reference: positive over tested donors): 50%
Nc1ncnc2c([C@@H]3N[C@H](CO)[C@@H](O)[C@H]3O)c[nH]c12 — inhibition (Marburg virus; viral RNA in cell lysate; HeLa, Musoke; 50 µM, 1 h): 96.9%
VTYVPAQEK — frequency of responding donors (AIM; peptide, CD8+ T cells from PBMC, human donors; HLA-A*03:01 restricted, unit not given; reference: positive over tested donors): 25
CN1CCCC2(C1)CN(Cc1cccnc1)c1ccc(C(=O)NCC3CCCCC3)cc12 (stereo not drawn) — maximum response (SARS-CoV-2; cytopathic effect; USA_WA1/2020; retest, 8-point, duplicates): 97.4%
GKGQQQQGQTVTKKS — responding donors (human CD4 T cells; AIM; peptide): 7%
Cc1cn([C@H]2C[C@H](N=[N+]=[N-])[C@@H](CO)O2)c(=O)[nH]c1=O — EC50 (HIV-1; viral replication; human PBMC, subtype E CMU02, CCR5-tropic clinical isolate): 4.8 ± 3.18 nM
